# Assay results of several laboratories.
# Numbered parts are unrelated; each lists some results of a single study.

# Series 1 — method: RNA Bind-n-Seq; molecule type: RNA; medium: in vitro; tested at: 365 nM; reference: no-protein control; reading: higher = stronger binding
# Target: RNA binding protein fox-1 homolog 2, RRM domain, GST-SBP tag (RBFOX2, Homo sapiens, UniProt O43251-10, residues 100-194)
# Setting: natural RNA segment, single round, ends assumed
# Shared flanks, not repeated: GGGAGUUCUACAGUCCGACGAUC … UGGAAUUCUCGGGUGCCAA
# Construct (chain): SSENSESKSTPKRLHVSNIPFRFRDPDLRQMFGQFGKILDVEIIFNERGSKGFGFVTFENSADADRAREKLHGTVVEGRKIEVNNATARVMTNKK
Oligonucleotide,RBNS enrichment (R)
GAGCGCCAAUGAGGUUCCCUGCAACCCCCGCCCUCCAGCCCACCGCCCAACCUUUUACAAAUGGCAUUUUCUUAAUUGAAAAUCCGGGAAGCAGGUGUGAUUACUUUUUU,0.354
GUAUCUUCUAGCACCAACUGCUGUAAAGCAAUGCUGCAAAUAAUGCUUGAAUACAAGUGGCUAAGCCAACAACAGAAUAAAUACUUUUAUAGUAGUUUUAUAAUCCUGAA,0.92
GUACCACCCACACAGCACAGCUCUUCAUUCACAGUCAAGAGUUUAGACUGCUCCAGCUGGGACAUCCAGUCCUCGCUGCUGUUGCUGCUAGUUCGAAGGAUGCCGCCGUG,0.23
ACCCUAUUUAAAACUGGGUCAUCAUUUGUCCUGUUCUAGCAAGAUAGUCUUCAGUUUCAUUUUCCUGUGCCCUGUGGUAGUUGGAAACAAAUCAUAAUGUAUUAUUUAAA,0.345
CCCCCGGGAGGGCUGCCGCACUGCCAAAGAGUCUCCCUCCUCCUGGGGAAGGGGCUGCCAACGAACCAGACUCAGUGACCACGUCAUGACAGAACAGCACAUCCUGGCCA,0.381
UCCUAUACUGGCAUUAGGCGUCUCCUCAUCCCUCACCCUGACCUUUCUCCUGUCCUUUUCUUGGCUGGAAGAAGUUGGCCUCCUGGGAGUGUAGUUUUCUGUUUUAAAUC,0.396
AGCGCCUACUCCUUCUUGGCGAAUGCUGCCUUCAGAUGCUUACCAAGUGGUCACUGCAUCUAGUAAGAUUAUAUUUCCAGUACACUUCCUUAGGGCAGAAACACCAUCCU,0.361
UUGGCAUCCUUGCUCAUCCAUUCCUGUCUACCUCCCUUGUUAGUCUAGAUUUCUGGAGUUAUGUUCCCCACAUCCAAAGCCAGUGUCUACAUACAGCUGCCAUGCCCUUU,0.752

# Series 2 — method: protein-binding microarray; molecule type: double-stranded DNA, one strand shown; medium: in vitro; tested at: 250 nM; setting: 60-bp whole probe; added: salmon DNA 0.4 mg/ml; reference: random background probes; reading: higher = stronger binding; shared flanks, not repeated: GCCTAGCAC … GTCTTGATTCGCTTGACGCTGCTG
# Target: Interferon regulatory factor 5, full length, phosphomimetic (IRF5, Homo sapiens, UniProt Q13568-2, residues 1-514, K96S/S451D/S453D/S456D/S462D)
Oligonucleotide,log fluorescence
TTAGGTATAGGGTATCGGTTAGTGCTA,1.93 z-score
TTAAATTTCAGTTCCGATTAGTGCTAG,3.78 z-score
GACGGTTTCGGGAATCGGGACGTGCTA,5.5 z-score
TCACCTATCAGTTTAATACTGTGCTAG,1.44 z-score
GACGGCTTCCTACTGCTGACGTGCTAG,-0.57 z-score
TTAGGTTCCGGATTCGGTTAGTGCTAG,0.71 z-score
GACGGTATCGGGTAGCGGGACGTGCTA,2.7 z-score
TTTTTTTTTACTTCGGGTGAGTGCTAG,1.41 z-score
GACGGTATCGGACTTGGGACGTGCTAG,0.678 z-score
AACGGTTTCCTTTCCCTGACGTGCTAG,1.77 z-score

# Series 3 — method: protein binding microarray; molecule type: double-stranded DNA, one strand shown; medium: in vitro; tested at: not given; reference: not given; reading: higher = stronger binding
# Target: Histone acetyltransferase KAT6A, winged helix 1, GST fusion (KAT6A, Homo sapiens, UniProt Q92794, residues 1-85)
# Setting: 8-mer, flanks averaged, mean of 2 arrays, mostly near background
# Target sequence (chain): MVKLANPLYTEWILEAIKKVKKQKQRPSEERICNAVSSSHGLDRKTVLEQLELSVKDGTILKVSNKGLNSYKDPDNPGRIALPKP
Oligonucleotide,E-score
ATGAACAG,-0.208
AACTCGAA,-0.163
AAAGGACA,-0.189
CGGTTTGC,0.279
AATCAATT,-0.13
AACGAATT,-0.201
TCTCTCCA,-0.143
CAACTACC,-0.0951

# Mixed results
Molecule,target,test,test system,conditions,how to read,quantity,result
"PhoQ, residues 284 288 289 292 302 303 SNSSNI","PhoP, residues 12 14 15 18 19 VQALL (Escherichia coli, UniProt P23836)","Sort-seq, measured: YFP reporter",E. coli,"PhoQ-PhoP variant library, added: 10 µM Mg2+","reference: high Mg2+ state, higher = stronger signaling",fold induction,2.3

# Repeated from above (series 1):
Oligonucleotide,RBNS enrichment (R)
CCCCCGGGAGGGCUGCCGCACUGCCAAAGAGUCUCCCUCCUCCUGGGGAAGGGGCUGCCAACGAACCAGACUCAGUGACCACGUCAUGACAGAACAGCACAUCCUGGCCA,0.381
UCCUAUACUGGCAUUAGGCGUCUCCUCAUCCCUCACCCUGACCUUUCUCCUGUCCUUUUCUUGGCUGGAAGAAGUUGGCCUCCUGGGAGUGUAGUUUUCUGUUUUAAAUC,0.396
AGCGCCUACUCCUUCUUGGCGAAUGCUGCCUUCAGAUGCUUACCAAGUGGUCACUGCAUCUAGUAAGAUUAUAUUUCCAGUACACUUCCUUAGGGCAGAAACACCAUCCU,0.361
